# Experimental data collected from several papers.
# A part holds a random share of what one study measured.

# Block 1 — method: protein binding microarray; form: double-stranded DNA, one strand shown; matrix: in vitro; concentration: not given; reference: not given; direction: higher = stronger binding
# Target: Histone acetyltransferase KAT6A, winged helix 2, GST fusion (KAT6A, Homo sapiens, UniProt Q92794, residues 85-181)
# Setting: 8-mer, flanks averaged, mean of 2 arrays, mostly near background
# Target sequence (chain): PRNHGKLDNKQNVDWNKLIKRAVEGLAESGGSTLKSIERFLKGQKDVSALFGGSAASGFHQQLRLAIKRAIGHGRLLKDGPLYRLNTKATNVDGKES
Oligonucleotide,E-score
AGCTCCCA,-0.139
TCGATACA,-0.0364
CGTCAGAC,-0.145
GATCACGC,0.139
CCATAGCG,-0.00792
ACACAAAG,0.0395
ATAGTAGA,-0.178
AAGAATCG,0.0388
GATGTACA,-0.0833
CAGCCTCG,0.0983
CTCGCTTC,0.179
CGCCTGCA,0.162
ATATAAGC,-0.0553
AGCCGATA,-0.0562
AACAGACC,0.0119
CCCGACTC,0.15
ATTAGTGC,0.166
CCTGGGGC,0.11
CCCTTACA,-0.0131

# Block 2 — method: protein-binding microarray; form: double-stranded DNA, one strand shown; matrix: in vitro; concentration: 940 nM top; setting: 60-bp whole probe; added: salmon DNA 0.4 mg/ml; reference: random background probes; direction: higher = stronger binding; all sequences stand within: GCCTAGCAC … GTCTTGATTCGCTTGACGCTGCTG
# Target: Interferon regulatory factor 5, full length, phosphomimetic (IRF5, Homo sapiens, UniProt Q13568-2, residues 1-514, S451D/S453D/S456D/S462D)
Oligonucleotide,fitted relative affinity [z-score]
TCAAGTCCCACATCTCTGACTGTGCTA,0.318
GACGGACTGGGGAATCGGGACGTGCTA,-0.293
TTAGGACTGGAATATCGGTTAGTGCTA,-0.151
GATGGACTGGGGACTGGGGACGTGCTA,-0.357
GACGGTATTGACTATCGGGACGTGCTA,0.133
TCACCTCTAACTTTCCAACTGTGCTAG,0.912
TTTGCTTTCCTTCATGCACTGTGCTAG,0.863
TCATGAGTCCCTATCTCACTGTGCTAG,-0.174
TTAGGTCTCGGTCTCCGTTAGTGCTAG,4.45
TCATACCTGAATATCTTACTGTGCTAG,0.335
CTCTTGATCCCGAACTGGCCGTGCTAG,0.0455
TTAGGACTGCAACTGCTTTAGTGCTAG,-0.566
GACGGACTAGGTCTCGGGACGTGCTAG,-0.364
GACGGACTGGGTTTTCGGGACGTGCTA,0.253
TGAGGTTTCCTACTGCTTTAGTGCTAG,0.57
TTAGCACTGGGACTGGGTTAGTGCTAG,-0.293
TCAGTTTCTGATATGGTACTGTGCTAG,3.75
TTAGATTCCGGTTTCGGTTAGTGCTAG,9.1
GACGATTTCAGTCTCGTGACGTGCTAG,0.78
GACGGTCTCGGTCTCGGCACGTGCTAG,4.22
TTAGGTTTCCTACTGCTTTGGTGCTAG,0.651
TTAGGTATCCTACTGCTATAGTGCTAG,0.124
GACGAACTGAATTTCGAGACGTGCTAG,-0.154
AGTGTTTCCCCTATTTAAGAGTGCTAG,1.49

# Block 3 — method: RNAcompete; form: RNA; matrix: in vitro; concentration: 20 nM; setting: 7-mer, probes averaged, single round; reference: mean of 7-mers; direction: higher = stronger binding
# Target: PABPC1L2, full length, GST fusion (mouse, UniProt A0ABA7IW68)
# Residues (chain): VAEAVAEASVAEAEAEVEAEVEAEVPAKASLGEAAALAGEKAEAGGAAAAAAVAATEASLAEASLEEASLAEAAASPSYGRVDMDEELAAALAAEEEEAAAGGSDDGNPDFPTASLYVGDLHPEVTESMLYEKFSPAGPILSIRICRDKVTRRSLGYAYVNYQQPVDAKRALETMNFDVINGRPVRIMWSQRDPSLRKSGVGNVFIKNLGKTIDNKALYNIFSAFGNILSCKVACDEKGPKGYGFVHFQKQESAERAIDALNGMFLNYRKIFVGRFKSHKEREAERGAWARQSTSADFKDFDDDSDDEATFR
Oligonucleotide,7-mer Z-score
UAAGCAU,-0.0373
AGAAGUG,-0.0355
UUUUGUG,-0.345
ACGGGGC,0.135
GCCAAGA,-0.021
GCGAAAG,0.177
UCUUAGC,-0.373
AUGAAGC,0.00798
GUGAAGU,-0.228
GUGAGAA,-0.0699
AUUACAU,-0.0047
AAGAGCC,0.782
CGCUAUA,-0.117
AAGAUAU,0.213
UUUGCGG,-0.347
AAUGCCG,0.129
AUUUGAU,-0.173
CCGACAA,0.234
AAGUCCU,-0.206
ACAGUCA,-0.0192
AUGCUGC,-0.213
UUGACAG,-0.217
CAGCCAC,0.0623
CAUUGUG,-0.22
ACUAACG,-0.0899

# Block 4 — method: RNA Bind-n-Seq; form: RNA; matrix: in vitro; concentration: 365 nM; reference: no-protein control; direction: higher = stronger binding
# Target: RNA binding protein fox-1 homolog 2, RRM domain, GST-SBP tag (RBFOX2, Homo sapiens, UniProt O43251-10, residues 100-194)
# Setting: natural RNA segment, single round, ends assumed
# All sequences stand within: GGGAGUUCUACAGUCCGACGAUC … UGGAAUUCUCGGGUGCCAA
# Construct (chain): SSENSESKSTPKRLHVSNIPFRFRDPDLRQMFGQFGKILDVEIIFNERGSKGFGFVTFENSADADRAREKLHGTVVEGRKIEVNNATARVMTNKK
Oligonucleotide,RBNS enrichment (R)
GAAAGGCGGCAAUAUUCAAACCAGAGACCCUGGGCAUCGGUGUAGCCAGUCUGAAGGCCUGAGCCAGGAGCGCUGUGUGGGUUGCCUGUCUCAGGUCGUUGUCAUUUGCC,0.249
UUCCUCCGCUCACCCCAUUGCUUGUUAUCACUGGGGAUGCCUGGACUUGGUCAAGUGAGCAACUGAUUCUUGUUUUUAGCAACUCAAAACAUAAAAAGAUCAGGAGAGCA,5.82
CCUCUAGGAUGAGCUCAGAGCGAGAGAUGACACAAUGCCUCACUCAGGCCCCGGGCUCCCUGGCCACAAGCUUUUUCUAUCCUGUUUUCAUGACAGAGAAGGGGAAGCCC,0.204
UUCCUUAACUCUAGGUUUGUAGUCUGUUUUAAAUUAGGAUUAGUUCCUGCAUUCUGAAAUACAUUGGCCUAGAACAUUUUAUCCCAGGCAUUUUUGAAUAGAAAACAGUU,0.334
AAAGGUGGUGGGGAUCCAGUUCAGGAGGGAGGGGUAUGUUUGUCUCCCAGUCUGGGCAAAGGAGUGCUAUGCGGAAUUCUCUGCAUAGCAGAAAAGCUCCCACCAUUUUC,1.94
UUACCAUUUUGAGGGGAUUUAUACAUAUUUUAGAUAAAAAAAGUUAAAUGCUCUUAUUUUUCCAACAGCUUAACUACUCCUAGUUCAAGAGUGUCCCUUAGCCUUCCUUG,0.379
AGUGAACUGAUGCUCCCACCUGGGUGCCUCCAUGGCUUCCUUGAGCAACUGUCCCUAAGAUGCUUUCAAGUGUAUGAGACAUGAGGAGGCUGGGCCACUCUGGUUAUGCA,3.45
AAGAGAAAUUCUUGAGGACCCUGGCAAGUUGGGCCCUGACCUUUCUGUUGCUGUCUCUUGCUGGUGAAGCAAUACCAGCAGUUCCUGUAAUACCACAAUAUCGUUCCAUG,0.291
UUCGCAGAUGUGUAUACUCAUGAUAGGUCAGAAAGUGUAUCCGCUACAAUAAAGUUCUGGUUCUAACAACUCCAGCCGGAGCGGGGUUUGUCUUCUCUCCUGUUUUGGUU,0.266
CCAGUGCACCUCCCUCCCCAGCUCCGGAGGGGGUCCUCCUCGCUCCUCCUUCCCAGGGACCAGCACCUUCAAGCGCUCCAGGGCCGUGAGGGCAAGAGGGGGACCUGCCA,0.381
CUUGCAGCUAGCCGAGAUAGCACCACUGCACUCCAGCCUGGGCGACAGUGAGACUCCGUUUCAAAAAAAAAAGCAUCAGGCCCAUGAAGUAUCAAAAACCAGGUUAGGAG,4.41
UAAUGCAGACUGUAUUCUUGCAGCGUGUUGUUUCCUUUGUGACUCAAGGUUGAAUUAAAAUGCCUGUGAACUGCAAACUUGCUUAUGAUUGACUUGGUGCAAUAAAGUUC,0.587

# Repeated from above (block 3):
Oligonucleotide,7-mer Z-score
GUGAGAA,-0.0699
AUUACAU,-0.0047
AAGAGCC,0.782
CGCUAUA,-0.117
AAGAUAU,0.213
UUUGCGG,-0.347
AAUGCCG,0.129
AUUUGAU,-0.173
CCGACAA,0.234
AAGUCCU,-0.206
ACAGUCA,-0.0192
AUGCUGC,-0.213
UUGACAG,-0.217
